Assay results gathered from unrelated publications.
Each numbered part is a random draw from the data of one study; scales do not carry over between parts. “And” joins repeats or separate records; there may be more than shown.

Sample 1 — cell line: NCI-H292; method: CellTiter-Glo; time: 72 h; direction: higher = more viable cells
SMILES: N#C/C=C/CNCCCCN1c2ccccc2CCc2ccc(Cl)cc21.O=C(O)/C=C\C(=O)O
setting | luminescence
0.005 µM | 4.19e+06 a.u. and 4.08e+06 a.u. and 4.11e+06 a.u.
50 µM | 75200 a.u. and 76100 a.u. and 72400 a.u.
5 µM | 2.19e+06 a.u. and 2.48e+06 a.u. and 2.15e+06 a.u.
0.5 µM | 4.05e+06 a.u. and 4.1e+06 a.u. and 4.21e+06 a.u.
0.05 µM | 4.2e+06 a.u. and 4.14e+06 a.u.

Sample 2 — cell line: U-87 MG; concentration: concentration not given; baseline: DMSO
Structure (SMILES): CCN1/C(=C/C=C2\CCCC(/C=C/C3=[N+](CC)c4ccccc4C3(C)C)=C2NCCCCCCCCN2CCC(Nc3nc4ccccc4n3Cc3ccc(F)cc3)CC2)C(C)(C)c2ccccc21
assay | log2 fold change
measured: IFT122 mRNA | -0.918
measured: PLCE1 mRNA | -1.51
measured: CXXC5 mRNA | -2.47
measured: LRRC34 mRNA | -1.04
measured: OLIG2 mRNA | 2.23
measured: IGFLR1 mRNA | -2.12
measured: KLF6 mRNA | -0.906
measured: IQCB1 mRNA | 0.907
measured: RMC1 mRNA | 1.01
measured: ZNF550 mRNA | 1.12
measured: SNX9 mRNA | 0.944

Sample 3 — method: in-cell ELISA
Structure (SMILES): CCN1CCN(Cc2ccc(COc3c(-c4c(C)c(F)cc5[nH]ncc45)c(C4CC4)cc4c(N5C[C@@H]6C[C@H]5CN6)nc(OC5CCOCC5)nc34)cc2)C(=O)C1
cell line | setting | phospho-ERK1/2 level
AsPC-1 (KRAS G12D) | 30 nM, 24 h | 105% and 98.5% and 109% and 104%
AsPC-1 (KRAS G12D) | 3 µM, 24 h | 15.4% and 19.1% and 16.6% and 18.3%
AsPC-1 (KRAS G12D) | 300 nM, 24 h | 82.2% and 85.8% and 80.1% and 85.5%
AsPC-1 (KRAS G12D) | 3 nM, 24 h | 107% and 99.1% and 96.1% and 105%
AsPC-1 (KRAS G12D) | 300 pM, 24 h | 101% and 109% and 106% and 104%
AsPC-1 | 100 nM, 2 h | 14.6% and 19% and 14.3% and 20.2%
AsPC-1 | 300 nM, 2 h | 3.4% and 6.3% and 5% and 7.7%
AsPC-1 | 30 nM, 2 h | 49.8% and 66% and 58.3% and 61.3%

Sample 4
SMILES: Cc1ccc(O)c(C)c1-c1cnc2[nH]c(-c3cnc(N4CCC5(CC4)CC(N4CCN(c6ccc(NC7CCC(=O)NC7=O)cc6F)CC4)CO5)nc3)cc2c1C#N (centres unmarked)
Target: Membrane-associated tyrosine- and threonine-specific cdc2-inhibitory kinase (PKMYT1, Homo sapiens, UniProt Q99640)
Chain of UniProt Q99640 (whole entry, looked up): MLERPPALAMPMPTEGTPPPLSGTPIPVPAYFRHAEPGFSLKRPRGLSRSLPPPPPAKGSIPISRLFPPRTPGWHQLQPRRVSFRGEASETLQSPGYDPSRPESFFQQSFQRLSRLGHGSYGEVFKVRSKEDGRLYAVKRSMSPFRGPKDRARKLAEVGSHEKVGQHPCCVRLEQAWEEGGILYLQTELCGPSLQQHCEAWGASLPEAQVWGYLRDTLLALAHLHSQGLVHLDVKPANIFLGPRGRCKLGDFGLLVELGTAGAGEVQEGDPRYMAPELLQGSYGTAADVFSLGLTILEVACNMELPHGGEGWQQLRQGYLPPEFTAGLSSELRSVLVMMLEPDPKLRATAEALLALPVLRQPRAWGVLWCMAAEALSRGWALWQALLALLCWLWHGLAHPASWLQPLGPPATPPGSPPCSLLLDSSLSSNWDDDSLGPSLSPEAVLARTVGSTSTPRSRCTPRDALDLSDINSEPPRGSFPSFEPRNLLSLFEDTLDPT
test system | setting | degradation
HCC1599 | 1.37 nM | 61.6%
HuCCT-1 | 0.05 nM | 14.3%
MDA-MB-157 | 0.05 nM | -1.1%
MDA-MB-157 | 37.04 nM | 75.7%
HuCCT-1 | 12.35 nM | 80.6%

Sample 5
SMILES: O=C(O)C1(O)Oc2cc(Cl)ccc2N(Cc2ccccc2)C1=O (centres unmarked)
organism | assay | test system | setting | scale | inhibition
Arabidopsis thaliana | root length | Col-0 | 12.5 µg/mL, 7 days, seed germination, dark |  | 7.7%
Arabidopsis thaliana | root length | Col-0, seedlings | 100 µg/mL |  | 94.9%
Arabidopsis thaliana | hypocotyl length | Col-0 | 3.125 µg/mL, 7 days, seed germination, dark |  | 0.1%
Arabidopsis thaliana | hypocotyl length | Col-0 | 6.25 µg/mL, 7 days, seed germination, dark |  | 1.6%
Arabidopsis thaliana | root length | Col-0 | 100 µg/mL, 7 days, seed germination, dark |  | 94.9%
Arabidopsis thaliana | root length | Col-0 | 3.13 µg/mL, 7 days, seed germination, dark |  | 6%
Alopecurus japonicus | fresh weight |  | 150 g ai/ha, pre-emergence treatment |  | 58.1% and 57.4% and 61.5%
Arabidopsis thaliana | root length | Col-0, seedlings | 100 µg/mL | baseline: water control | 94.9%
Setaria viridis | fresh weight |  | 150 g ai/ha, pre-emergence treatment |  | 71.5% and 73.2% and 77.9%
Abutilon theophrasti | fresh weight |  | 150 g ai/ha, pre-emergence treatment |  | 2.3% and 2.8% and 2.1%

Sample 6 — effect on: thermal unfolding; method: differential scanning fluorimetry; concentration: 5.5 µM; direction: higher = more unfolded
Structure (SMILES): C[C@@H]1CN(c2ccc(-c3cc(C(=O)NCCOCCOCCOCCOCCNC(=O)/C=C/c4[nH]cc(C(=O)N[C@@H](CC(N)=O)c5ccc(F)c(Cl)c5)c4-c4ccc(Cl)cc4F)ccc3F)cc2NC(=O)c2c[nH]c(=O)cc2C(F)(F)F)C[C@H](C)N1C
DCAF1: DDB1- and CUL4-associated factor 1 (DCAF1, Homo sapiens, UniProt Q9Y4B6)
Chain of UniProt Q9Y4B6 (whole entry, looked up): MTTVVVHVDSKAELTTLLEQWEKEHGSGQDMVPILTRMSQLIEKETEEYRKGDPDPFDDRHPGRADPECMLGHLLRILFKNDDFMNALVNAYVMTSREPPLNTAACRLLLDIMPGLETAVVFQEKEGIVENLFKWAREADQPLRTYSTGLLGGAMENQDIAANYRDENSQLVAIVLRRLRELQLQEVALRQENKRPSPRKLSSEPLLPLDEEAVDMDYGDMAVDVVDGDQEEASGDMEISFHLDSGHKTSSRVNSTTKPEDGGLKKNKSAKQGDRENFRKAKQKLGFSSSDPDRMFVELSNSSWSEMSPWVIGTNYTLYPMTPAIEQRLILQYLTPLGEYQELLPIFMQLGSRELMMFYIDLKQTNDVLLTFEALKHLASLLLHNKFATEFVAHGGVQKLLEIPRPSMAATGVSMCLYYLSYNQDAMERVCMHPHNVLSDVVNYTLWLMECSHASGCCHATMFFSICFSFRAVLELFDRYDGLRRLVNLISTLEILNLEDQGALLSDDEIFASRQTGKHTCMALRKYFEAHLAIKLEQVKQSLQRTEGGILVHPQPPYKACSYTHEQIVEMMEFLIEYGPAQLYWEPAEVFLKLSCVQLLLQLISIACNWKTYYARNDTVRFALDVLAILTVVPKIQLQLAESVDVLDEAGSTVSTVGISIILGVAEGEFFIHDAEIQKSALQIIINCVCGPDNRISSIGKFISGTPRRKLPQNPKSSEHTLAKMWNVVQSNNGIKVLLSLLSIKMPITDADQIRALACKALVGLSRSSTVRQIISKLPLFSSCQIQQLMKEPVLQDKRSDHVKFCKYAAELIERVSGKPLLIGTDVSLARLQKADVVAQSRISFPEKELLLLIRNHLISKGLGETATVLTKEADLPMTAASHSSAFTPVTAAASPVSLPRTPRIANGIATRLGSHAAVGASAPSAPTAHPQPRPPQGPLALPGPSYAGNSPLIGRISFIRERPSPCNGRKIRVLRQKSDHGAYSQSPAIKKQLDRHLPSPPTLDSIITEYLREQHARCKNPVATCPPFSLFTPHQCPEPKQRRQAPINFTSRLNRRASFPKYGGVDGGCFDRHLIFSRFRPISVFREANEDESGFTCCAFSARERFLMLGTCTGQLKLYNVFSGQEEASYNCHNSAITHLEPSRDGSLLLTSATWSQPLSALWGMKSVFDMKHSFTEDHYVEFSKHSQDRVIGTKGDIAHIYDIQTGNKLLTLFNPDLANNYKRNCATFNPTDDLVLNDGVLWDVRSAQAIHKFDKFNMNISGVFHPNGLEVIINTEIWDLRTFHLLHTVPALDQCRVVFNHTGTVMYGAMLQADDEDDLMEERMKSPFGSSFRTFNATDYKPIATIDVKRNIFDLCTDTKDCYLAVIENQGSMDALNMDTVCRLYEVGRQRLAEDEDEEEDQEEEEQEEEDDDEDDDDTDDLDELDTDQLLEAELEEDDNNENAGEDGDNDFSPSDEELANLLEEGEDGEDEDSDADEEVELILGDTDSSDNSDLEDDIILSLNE
WDR5: WD repeat-containing protein 5 (WDR5, Homo sapiens, UniProt P61964)
target | setting | SYPRO Orange fluorescence
DCAF1 | 58.81 °C | 35000 a.u.
WDR5 | 79.41 °C | 38700 a.u.
WDR5 | 50 °C | 16400 a.u.
WDR5 | 39.2 °C | 14100 a.u.
WDR5 | 85.01 °C | 52300 a.u.
WDR5 | 90.61 °C | 50400 a.u.
DCAF1 | 51 °C | 16000 a.u.
DCAF1 | 26.8 °C | 8870 a.u.

Sample 7 — cell line: MDA-MB-468; effect on: cell viability; method: CellCounting-Lite; concentration: 24.69 nM; temperature: 37 °C; direction: higher = more viable cells
Structure (SMILES) | luminescence signal
CC(=O)N1CCN(c2nc(NCc3nc4cc(Cl)c(Cl)cc4[nH]3)c3ncn(-c4cnn(C)c4)c3n2)CC1 | 289000 a.u. and 333000 a.u. and 361000 a.u.
CCn1cnc2c(NCc3nc4ccc(F)c(F)c4[nH]3)nc(N3CCn4ncnc4C3)nc21 | 320000 a.u. and 329000 a.u. and 359000 a.u.
CCn1cnc2c(NCc3nc4cc(Cl)c(Cl)cc4[nH]3)nc(N3CCN(C(=O)CNC(C)=O)CC3)nc21 | 79600 a.u. and 78600 a.u. and 61600 a.u.
CCCCOc1nc(NCc2nc3cc(Cl)c(Cl)cc3[nH]2)c2ncn(CC)c2n1 | 500000 a.u. and 450000 a.u. and 398000 a.u.
CC(=O)N1CCN(c2nc(NCc3nc4cc(Cl)c(Cl)cc4[nH]3)c3ncn(C)c3n2)CC1 | 465000 a.u. and 375000 a.u. and 424000 a.u.
CCn1cnc2c(NCc3nc4cc(Cl)c(Cl)cc4[nH]3)nc(N3CCC(NC(C)=O)CC3)nc21 | 438000 a.u. and 446000 a.u. and 417000 a.u.
CCn1cnc2c(NCc3nc4cc(Cl)c(Cl)cc4[nH]3)nc(N3CCN(C(=O)c4ccncc4)CC3)nc21 | 60100 a.u. and 59400 a.u. and 67400 a.u.
Cn1cc(-n2cnc3c(NCc4nc5cc(Cl)c(Cl)cc5[nH]4)nc(N4CCNCC4)nc32)cn1 | 204000 a.u. and 230000 a.u. and 217000 a.u.
CC(=O)N1CCN(c2nc(NCc3nc4cc(Cl)c(Cl)cc4[nH]3)c3ncn(C(C)C)c3n2)CC1 | 432000 a.u. and 485000 a.u. and 442000 a.u.

Repeated from above (sample 2):
assay | log2 fold change
measured: IFT122 mRNA | -0.918
measured: PLCE1 mRNA | -1.51
measured: CXXC5 mRNA | -2.47
